Experimental data gathered from unrelated publications.
Protocols differ between the studies behind these lines. “And” joins repeats or separate records; there may be more than shown. Numbers after ± are the reported error. In brackets after ≈: the same amount, converted by molar mass.

COc1cccc(O)c1C(=O)/C=C/c1ccc2cc(N3CCCC3)ccc2c1  inflammatory cytokine secretion (HK-2; measured: TNF-α, IL-1β, IL-6; concentration not given, added: cisplatin): decreased
COC(=O)c1cc(NC2=NC(=O)C(=Cc3ccc(N(C)C)cc3)S2)ccc1OC(C)=O  metabolite level (MCF7; GC-MS, measured: L-Isoleucine; 1 µM; reference: DMSO): 0.09 fold change
COc1ccccc1-c1ccncc1C(=O)Nc1ccc(OCc2ccc(Cl)cc2)nn1  colony survival (DLD-1 BRCA2 wild-type parental; colony formation; 40 µM; reference: untreated control): 1.41%
Cc1ccc(Nc2nc(NCc3ccco3)c3ccccc3n2)cc1  translation activity (Trypanosoma cruzi; reporter mRNA translation, inhibitor, measured: Renilla luciferase mRNA; cell-free extract; concentration not given, test 2; reference: positive over negative control): 79.2%
C=CC(=O)N1[C@H](c2ccc3c(c2)OCO3)c2[nH]c3ccccc3c2C[C@@H]1C(=O)NC  neuron degeneration (rat DRG neurons; 0.3704 µM, 48 h, added: vincristine 40 nM): 45.7% and 41.8%
CCCCCCC(=O)[O][Pt]([NH2])([NH2])([Cl])([Cl])[O]C(=O)CCC(C)C1CCC2C3CCC4CC(O)CCC4(C)C3CCC12C (centres unmarked)  cells in G2 phase (PC-3; PI flow cytometry; 2 µM, 48 h): 28.7%
COC(=O)[C@@]1(C)C=C(C(=O)Nc2cccc(C(=O)Nc3ccc(Nc4nccc(-c5cccnc5)n4)c(C)c3)c2)C(=O)CC1  reporter activity (HEK293 AP1 reporter cells; AP-1 reporter gene, inhibitor; 1 µM, 6 h, unit not given, added: PMA; reference: PMA alone): 1.04 and 1.02
Cc1ncsc1-c1ccc(C(C)NC(=O)C2CC(O)CN2C(=O)C(NC(=O)CCCCCCCCCCN2CCCC(Nc3ncc(Cl)c(Nc4ccccc4S(=O)(=O)C(C)C)n3)C2)C(C)(C)C)cc1 (centres unmarked)  log2 fold change (22Rv1; RNA-seq, measured: ZNF175 mRNA; concentration not given; reference: DMSO): -1.14
COc1ccc(NC(=O)c2ccc3[nH]c(-c4ccc(N(C)C)cc4)nc3c2)cn1  dead cell to confluence ratio (HCEC-hTERT; IncuCyte; concentration not given, 2 h): 2.13 and 1.72 and 1.97
COC(=O)c1cc(NC2=NC(=O)C(=Cc3ccc(C)cc3)S2)ccc1OC(C)=O  metabolite level (MCF7; GC-MS, measured: 11-Eicosenoic acid; 1 µM; reference: DMSO): -1.12 fold change
CNS(=O)(=O)Nc1nccc(Cc2c(C)c3ccc(Oc4ncccc4F)cc3oc2=O)c1F  IC50 (KATO3; cell viability; 7 days): 79.3 nM
CCCCCCc1cccc([C@H](O)C[C@H](CO)NC(=O)CCCCCCCCCCBr)c1  ceramide level (HeLa; CERT activity, HPLC-MS/MS lipidomics, measured: ceramide 16; 1 µM, 24 h, not cell-number normalised): 23800 pmol/sample and 23200 pmol/sample and 20400 pmol/sample
COc1cccc(OC)c1-c1cc(C(=O)NC2(C(=O)O)C3CC4CC(C3)CC2C4)nn1-c1ccc(C(=O)N(C)CCCN(C)C(=O)[C@H](CCCCNC(=O)[C@H](CC(C)C)NC(=O)C2OC2C(=O)O)NC(=O)CN2CCN(CC(=O)[O-])CCN(CC(=O)[O-])CCN(CC(=O)[O-])CC2)cc1C(C)C.[177Lu+3] (mixture of isomers)  internalized fraction (HT-29; concentration not given, 120 min; reference: added activity): 4.96 ± 0.22%
Cc1ccc(-n2cc(CSc3nc4ccccc4n3Cc3cn(-c4ccc(C)cc4)nn3)nn2)cc1  viability (MDA-MB-231; MTT; 250 ppm): 7.39%
O=C(Nc1nnc2c1c(-c1ccc(Cl)cc1)nc1sc(=Cc3ccco3)c(=O)n12)c1ccccc1 (mixture of isomers)  growth percent (786-0; NCI60 SRB; 10 µM): 53.6%
COc1ccc2c(c1)CCCN2S(=O)(=O)C1CC2OC1C(c1ccc(O)cc1)=C2c1ccc(O)cc1 (centres unmarked)  Emax (MCF7 3xERE-luc, steroid-deprived; ERE luciferase reporter, agonist; reference: vehicle): -0.7%
CCCC[C@H](NC(=O)CCCCCCCNC(=O)CN1CCN(CC(=O)O)CCN(CC(=O)O)CC1)C(=O)N[C@H]1CC(=O)NCCCC[C@@H](C(N)=O)NC(=O)[C@H](Cc2c[nH]c3ccccc23)NC(=O)[C@H](CCCNC(=N)N)NC(=O)[C@@H](Cc2ccccc2)NC(=O)[C@H](Cc2c[nH]cn2)NC1=O [technetium-99m labelled]  tissue uptake (C57 mouse, blood; intravenous, 0.037 MBq, 2 h): 0.15 ± 0.05 %ID/g
Cc1cc(NC2CCN(C)CC2)ccc1-c1cc2c(N3CCC[C@H](C(=O)N[C@H](C)c4ccccc4)C3)ncnc2[nH]1  inhibition (KARPAS-299; cell growth or viability, MTT; 0.04 µg/mL, 72 h): 22.6%
[BH3-][P+]1(c2ccccc2)CCCCC1  IL-6 level (PC-3; ELISA; IC50, 72 h): 2.4 ± 0.09 pg/mL
C=C1C(=O)OC2C1CCC(C)(O)C13C=CC(C)(C21)C1(C3)C(=O)OC2C3C(C)=CCC3C(=C)CC(OC(C)=O)C21 (centres unmarked)  maximum inhibition (AML12 mouse hepatocytes; lipid accumulation, Nile Red staining; maximum safe concentration, 24 h, added: palmitic acid/oleic acid): 31.6 ± 4.59%
O=C(CNc1ccc2ccccc2c1)N/N=C/c1ccc([N+](=O)[O-])o1  translation activity (Trypanosoma cruzi; reporter mRNA translation, inhibitor, measured: capped polyadenylated Renilla luciferase mRNA; cell-free extract; concentration not given; reference: positive over negative control): 103% and 116% and 99.6% and 98.1%
CN(C)c1ccc(-n2cc(COC(=O)[C@]3(C)C=C(C(=O)OC(C)(C)C)C(=O)CC3)nn2)cc1  pERK/ERK ratio (HeLa; quantitative western blot; concentration not given, 30 (unit not given), added: EGF): 0.239
COc1cc(N2CCN(C(=O)C3CCCN3)CC2)ccc1Nc1ncc(Cl)c(Nc2ccccc2P(C)(C)=O)n1 (centres unmarked)  viability (NCI-H3122; CCK-8; 500 nM, 48 h): 15%
COc1c(C)c(OS(=O)(=O)c2ccccc2)c(C)c(O)c1C(=O)/C=C/c1ccccc1  selectivity index (FaDu; SRB; reference: normal over FaDu IC50): 1.07
C=C1C(=O)OC2C1CCC(C)(O)C13C=CC(C)(C21)C1(C3)C(=O)OC2C3C(C)C(=O)CC3C(=C)CC(OC(C)=O)C21 (centres unmarked)  mitochondrial content (AML12; MitoTracker Green; concentration not given, added: palmitate/oleate): increased
CO[C@@H]1[C@@H](OC(N)=O)[C@@H](O)[C@H](Oc2ccc3c(O)c(NC(=O)c4ccc(O)c(CC=C(C)C)c4)c(=O)oc3c2C)OC1(C)C  colony survival (DLD-1 BRCA2-/-; 300 µM, mean of replicates A, B; reference: untreated): 0.326%
COC(=O)C1=C(C)Oc2cc(OC)ccc2C1C(C(C)=O)C(=O)OC (centres unmarked)  IC20 (3T3-L1; cell growth or viability, MTT; 72 h): 101 µg/mL (≈ 291 µM)
O=C(N1CCCC1)n1cc(-c2ccc(-c3ccccc3)cc2)nn1  SILAC ratio per peptide (mouse T cells; N-terminal labelling proteomics, measured: Efhd2 N-terminal peptide; 0.001 µM, 6 h; reference: DMSO): 0.81 and 0.97 and 1.05 and 1.25 and 0.82
CCN(CC)CC(=O)Nc1cccc(-n2cc(-c3ccc4ccc(-c5cn(-c6cccc(NC(=O)CN(CC)CC)c6)nn5)cc4c3)nn2)c1  fold regulation (RCC4; PCR angiogenesis array, measured: ITGB3; 5 x IC50, 4 h, normoxia; reference: untreated): -1.34
COc1ccccc1-c1ccncc1C(=O)Nc1nnc(OCc2ccc(Cl)cc2)s1  change in MMEJ frequency (U2OS EJ2-GFP; EJ2-GFP reporter, GFP+/dsRed+ ratio; 20 µM, added: I-SceI transfection; reference: DMSO): 2.1% and 2.4% and 3%
Cc1cc(Cl)cc(-c2ccnc3cc(CN4C(=O)C5C(C4=O)C5(C)C)sc23)c1C[C@@H]1CNCCO1 (some centres unmarked)  S phase cells (CHP-212 parental; PI flow cytometry; 1 µM, 24 h): 12.3%
O=C(C[Se]C(=O)c1ccc2ccccc2c1)Nc1cccc(C(F)(F)F)c1  GI50 (NCI60 CNS cancer panel; five-dose screen): 1780 nM
CC(C)c1ccc(N(C)c2ccc3c(c2)OCC[C@H]3CNc2cnccc2C(=O)O)cc1  IC50 (KNS-81; cell growth, CellTiter-Glo; 7 days): ≥ 10000 nM
CCOc1cncc(-c2ccc(NC(=O)C3(c4ccnc(NS(=O)(=O)C5CC5)n4)CCOCC3)nc2)n1  IC50 (YAPC; cell growth or viability, ATP luminescence; 72 h): 706 nM
CCC(=CCc1c(O)cc2c(c1O)C(=O)CC(c1ccc(O)cc1)O2)CC (centres unmarked)  early apoptotic cells (HeLa; annexin V/PI staining; range over 12 to 48 µM): ≤ 0.29%
CCc1c(C)c2ccc(OC(C)C)c(C)c2oc1=O  viability (PC-3; cell growth or viability, MTT; 125 µg/mL): 5.5%
Cn1ncc2cc(-c3cncc(Cl)c3N3CCC4(CCNC4=O)CC3)ccc21  log2 fold change (LS174T; gene expression, microarray, measured: ALOX5 mRNA; concentration not given, 4 h; reference: untreated cells): 1.15
CN1CCCNC(=O)c2cccc(c2)C(=O)NCCCN(C)CCCNc2cccc3c2C(=O)c2cccc(c2C3=O)NCCC1  log2 fold change (SAS; RNA-Seq, measured: MCMBP mRNA; 1 µM, 6 h; reference: untreated cells): -0.483

A few entries again:
O=C(C[Se]C(=O)c1ccc2ccccc2c1)Nc1cccc(C(F)(F)F)c1  GI50 (NCI60 CNS cancer panel; five-dose screen): 1780 nM
CC(C)c1ccc(N(C)c2ccc3c(c2)OCC[C@H]3CNc2cnccc2C(=O)O)cc1  IC50 (KNS-81; cell growth, CellTiter-Glo; 7 days): ≥ 10000 nM
CCOc1cncc(-c2ccc(NC(=O)C3(c4ccnc(NS(=O)(=O)C5CC5)n4)CCOCC3)nc2)n1  IC50 (YAPC; cell growth or viability, ATP luminescence; 72 h): 706 nM
CCC(=CCc1c(O)cc2c(c1O)C(=O)CC(c1ccc(O)cc1)O2)CC (centres unmarked)  early apoptotic cells (HeLa; annexin V/PI staining; range over 12 to 48 µM): ≤ 0.29%
